Assay results gathered from unrelated publications.
Numbered parts are unrelated; each lists some results of a single study. Changes are numbered by the printed parent chain.

Set 1 — technique: DHFR PCA, deep sequencing; sample: yeast; together with: (+)-ABA 17 µM; relative to: wild-type fitted maximum; reading: higher = stronger binding
Target: ABI1, truncated, D143A, DHFR fusion (Arabidopsis thaliana)
Setting: methotrexate growth selection, single substitutions
Starting sequence: PYL1, truncated, DHFR fusion (Arabidopsis thaliana); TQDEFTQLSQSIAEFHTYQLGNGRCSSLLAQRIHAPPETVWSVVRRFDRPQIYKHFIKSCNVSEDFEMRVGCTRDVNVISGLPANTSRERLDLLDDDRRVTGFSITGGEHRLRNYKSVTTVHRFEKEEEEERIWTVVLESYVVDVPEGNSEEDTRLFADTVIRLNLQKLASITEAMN; partner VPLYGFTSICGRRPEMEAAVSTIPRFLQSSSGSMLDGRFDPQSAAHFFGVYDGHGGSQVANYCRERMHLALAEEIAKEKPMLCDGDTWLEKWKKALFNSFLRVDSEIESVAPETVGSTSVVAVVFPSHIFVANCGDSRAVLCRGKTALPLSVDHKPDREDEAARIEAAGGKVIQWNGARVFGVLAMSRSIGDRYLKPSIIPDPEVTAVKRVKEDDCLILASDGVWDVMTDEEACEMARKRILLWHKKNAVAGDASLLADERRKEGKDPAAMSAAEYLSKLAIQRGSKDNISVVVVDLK
| Change | relative binding score [%] |
| --- | --- |
| E125W | 72.4 |
| T160D | -5.41 |
| E128G | 101 |
| W134Y | 103 |
| K168Y | 20.8 |
| V143N | 1.01 |
| A30K | 87.3 |
| G71R | 7.25 |
| L156F | 71.8 |
| Y115S | -9.83 |
| T17E | 57.4 |
| S9V | 67.5 |
| L169F | -8.27 |

Set 2 — technique: RNA Bind-n-Seq; form: RNA; sample: in vitro; concentration: not given; setting: RNA with constant flanks, ends assumed; relative to: input RNA pool; reading: higher = stronger binding
Target: RING finger protein unkempt homolog, zinc fingers 1-6, GST-SBP tag (UNK, Homo sapiens, UniProt Q9C0B0, residues 30-357)
Constant ends, left off below: GGGAGUUCUACAGUCCGACGAUC … CAACAGAGGAUUGAGCAUCA
Target sequence (chain): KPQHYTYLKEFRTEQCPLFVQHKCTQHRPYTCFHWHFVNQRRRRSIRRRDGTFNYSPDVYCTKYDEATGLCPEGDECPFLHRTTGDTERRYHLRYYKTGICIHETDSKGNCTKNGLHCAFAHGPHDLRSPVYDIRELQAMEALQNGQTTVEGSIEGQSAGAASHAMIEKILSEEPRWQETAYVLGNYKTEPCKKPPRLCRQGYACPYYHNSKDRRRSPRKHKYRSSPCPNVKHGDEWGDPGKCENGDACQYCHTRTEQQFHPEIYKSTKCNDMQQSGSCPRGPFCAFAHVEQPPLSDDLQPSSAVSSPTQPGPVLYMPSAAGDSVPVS
| Sequence | bound/input enrichment [ratio] |
| --- | --- |
| GCUUGCCAGAAGAUGAUCUUAGAGUUGUUUUCUAAGGUGCCAUCCUUGGUAGGAAGCUUUAUCCGAAGCCAAAAUAAAGAAGACUAUGCUGGCCUAAAAGAAGAAUUUCGUAAAGAAUUU | 0.188 |
| UUCUUUCCCUUUUUCUUUCAGAGCUGUUGCGCAGCCAUUGGUACCUGUAUUGGGGAAACACCGCAUACAAGCAAGAAGCUUACAGCCUCAGUGGCGAAAAUUUUUUCAUGUCAGAGACCG | 0.279 |
| GUCAGCCAGUCACUACAGCAUUACCUGGAGCUGGGACGGCAAGAACUUUUCAAGAUUCUACACCGUAUUUUGUUAAAUGGCGAAACUCGUGAAGCGGCUCUCAGCUACAUGGCGGCCCUU | 0.298 |
| CAGGGACGUUUUGAUGUAAAAAUUGAAGUUAAGAGCUGAUCACAAGCACAAAUCUUUCCCACCCGCCAUUUAAUAAGUUAAAAAAAGAUACAAAAACAAAAACCUACUAGUCUUGAACAA | 2.75 |
| GGUGUACGCGGCGAUUUCAACUCUCGAAUGGGAGGAGGCAGUAUAGAGGUAUCUGUGCCCCGGUUUGCUGUGGGGAUUGUAAUAGGAAGAAACGGGGAAAUGAUCAAAAAGAUCCAGAAU | 1.07 |
| CCUCAGAAGAGGAAUCUUGCUUCUUUAAAGCUCUCAUGGUGCUUUCAUUUUAAAGGAGACUUCCGAAGAAAAAGAAUGGAAUGAAGUUUUGAGUUACAAUUCAAAUUUGGGGAUCAAUCC | 0.0991 |
| AUAUAGACCUAUGAUGUACAGGUACGACAUGUAUAGGUUACCUAGAUGUUAUGAGAAAUUUCCGUUUAUUGUGAGUACUCAAGUUGCUUAGAGAGCCACCAGGGUGAUUUGCUGCUGGCU | 2.69 |
| CUUGGGGACCUUCGAACUCUGGAGCUGCUGCUUAUCUGUGCAGGCCAUCCUCAAUAUGAGGCCGCCGAAAUUUCAUUUAACUUUUGGUACCGACUGGGGGAACAUUUGUACAAAACUAAC | 0.187 |
| ACUGUGGCAUAUACUGAAAAGAAAAUGACCAGUGGCAAGAUCAAGAAAUUUAUUCAGGACCGCAUUUUUGGUCUCUGUCCUCAUAUGACGGAAGAUAAUAAAGAUUUGAUACAAGGCAAG | 0.31 |
| AUAACUACUCCUGCCAUGGCGGUCAGUCAUAUCAUGUUGGAAUCAUAUAAAAAGUAUAUUUCCGUGUCUUUGAUAUUACUUGGCAAAGUACAACAGCUACCAAAAUAUACAUCUCAAAUU | 0.125 |
| GUUAUUCUUGUAUGUAAUCCUGUGGCUUAACGACUUUUCCCUCCUCACCCUGCACUUCUCCCGCUCUCUGUUCCCUCUCCAUGGCUCUGACUCUUCUUAUUCUUGUGCUAAGACUUGUAG | 0.966 |

Set 3 — target: CEP164, C-terminal peptide (human); technique: DHFR complementation, deep sequencing; sample: yeast; relative to: wild type; reading: higher = weaker binding
Setting: single substitutions, model-inferred values
Starting sequence: PDZK1, PDZ domain 2 (human); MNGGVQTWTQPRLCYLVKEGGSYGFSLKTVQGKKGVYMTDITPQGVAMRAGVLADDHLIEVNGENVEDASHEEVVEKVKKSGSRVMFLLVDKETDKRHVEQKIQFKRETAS; partner HNRVKVYRF
| Change | binding free energy change [kcal/mol] |
| --- | --- |
| K28L | -0.345 |
| V78C | 0.938 |
| V46Y | 1.01 |
| V74M | 1.04 |
| Q10V | 0.19 |
| I41P | 1.11 |
| V85L | 0.297 |
| E67I | -0.00502 |
| S22N | 0.473 |
| K33H | 0.297 |
| V36P | 1.45 |
| K28H | 0.613 |
| Q10W | 0.428 |
| E93M | -0.11 |
| A54W | 0.318 |
| S22I | 0.253 |
| H71Y | 0.447 |
| R84I | 0.143 |
| S70H | -0.0514 |
| T7G | -0.328 |
| E93I | -0.112 |
| P11I | 0.547 |
| Q10A | -0.0815 |

Set 4 — target: CCNB3, cyclin fold, Cln2 fusion (human); technique: yeast growth competition, sequencing; sample: yeast; setting: weak parent motif; relative to: not given; reading: higher = stronger binding
Starting sequence: RB1 docking peptide (human); PKPLKKLRFDIEG
| Change | normalised enrichment score |
| --- | --- |
| L7Q | -0.266 |
| E12G | 0.501 |
| R8I | 0.286 |
| I11M | -0.222 |
| L4I | 0.411 |
| L4Q | 0.097 |
| D10F | 0.0933 |
| P1D | 0.613 |
| K6T | 0.135 |
| K6R | 0.778 |
| L4M | 0.353 |
| D10E | -0.305 |
| P3N | -0.399 |
| K2N | 0.164 |
| L4C | 0.112 |
| K2W | 0.0901 |
| K6V | 0.501 |
| D10I | -0.985 |
| I11R | -0.518 |

Set 5 — technique: protein binding microarray; form: double-stranded DNA, one strand shown; sample: in vitro; concentration: not given; relative to: not given; reading: higher = stronger binding
Target: Histone acetyltransferase KAT6A, both winged helices, GST fusion (KAT6A, Homo sapiens, UniProt Q92794, residues 1-181)
Setting: 8-mer, flanks averaged, mean of 2 arrays, mostly near background
Target sequence (chain): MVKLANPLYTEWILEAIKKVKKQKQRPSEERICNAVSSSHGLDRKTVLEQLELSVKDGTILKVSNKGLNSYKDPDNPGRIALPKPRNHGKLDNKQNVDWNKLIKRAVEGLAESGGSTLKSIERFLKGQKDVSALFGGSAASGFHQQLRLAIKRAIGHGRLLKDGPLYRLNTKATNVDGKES
| Sequence | E-score |
| --- | --- |
| ACGTTGTA | -0.0563 |
| AGGCAAAC | -0.134 |
| ATAAGATC | -0.0681 |
| TTATGAAA | -0.0609 |
| GTGGCCAA | -0.201 |
| GACGCGAC | 0.221 |
| GTCTCAGA | -0.125 |
| ATCCCCCG | 0.0578 |
| CGAAAGCC | 0.0283 |
| AGCAACAC | -0.108 |
| GAGATAGA | -0.179 |
| CGTTGCGC | 0.324 |
| CGTCCGGA | 0.229 |
| AACTAGCG | 0.278 |
| GTCCTTCA | 0.029 |
| CCGCGCAA | 0.293 |
| AGTCAAAT | -0.157 |
| AACAGCGA | 0.0383 |
| CACCAGCA | -0.274 |
| TCCAAAAA | -0.171 |

Some of these lines once more (set 2):
| Sequence | bound/input enrichment [ratio] |
| --- | --- |
| UUCUUUCCCUUUUUCUUUCAGAGCUGUUGCGCAGCCAUUGGUACCUGUAUUGGGGAAACACCGCAUACAAGCAAGAAGCUUACAGCCUCAGUGGCGAAAAUUUUUUCAUGUCAGAGACCG | 0.279 |
| GUCAGCCAGUCACUACAGCAUUACCUGGAGCUGGGACGGCAAGAACUUUUCAAGAUUCUACACCGUAUUUUGUUAAAUGGCGAAACUCGUGAAGCGGCUCUCAGCUACAUGGCGGCCCUU | 0.298 |
| GGUGUACGCGGCGAUUUCAACUCUCGAAUGGGAGGAGGCAGUAUAGAGGUAUCUGUGCCCCGGUUUGCUGUGGGGAUUGUAAUAGGAAGAAACGGGGAAAUGAUCAAAAAGAUCCAGAAU | 1.07 |
| GCUUGCCAGAAGAUGAUCUUAGAGUUGUUUUCUAAGGUGCCAUCCUUGGUAGGAAGCUUUAUCCGAAGCCAAAAUAAAGAAGACUAUGCUGGCCUAAAAGAAGAAUUUCGUAAAGAAUUU | 0.188 |
| AUAACUACUCCUGCCAUGGCGGUCAGUCAUAUCAUGUUGGAAUCAUAUAAAAAGUAUAUUUCCGUGUCUUUGAUAUUACUUGGCAAAGUACAACAGCUACCAAAAUAUACAUCUCAAAUU | 0.125 |
| CAGGGACGUUUUGAUGUAAAAAUUGAAGUUAAGAGCUGAUCACAAGCACAAAUCUUUCCCACCCGCCAUUUAAUAAGUUAAAAAAAGAUACAAAAACAAAAACCUACUAGUCUUGAACAA | 2.75 |
